Results of several laboratories.
Each numbered part is a random draw from the data of one study; scales do not carry over between parts. Changes are numbered by the printed parent chain.

Block 1
Target: Prothrombin, mature alpha-thrombin (F2, Homo sapiens, UniProt P00734)
Technique: aptamer microarray, sandwich
Form: DNA with 2'F-ANA
Matrix: in vitro
Concentration: 200 nM
Setting: whole 15-mer aptamer, many near background
With: Cy3 exosite-II aptamer, 400 nM
Direction: higher = stronger binding
Strand: GGTTGGTGTGGTTGG
Under “mean fluorescence intensity”, `2'F-ANA at 1 2 4 5 6 7 9 10 12 13 15` is recorded as 51.4 a.u.
For `2'F-ANA at 2 3 4 5 8 9 10 12 13`, “mean fluorescence intensity” read 54.1 a.u.
`2'F-ANA at 2 3 4 5 7 9 10 11 14 15` — result for “mean fluorescence intensity”: 47.9 a.u.
`2'F-ANA at 2 3 4 5 9 10 12 14 15`: “mean fluorescence intensity” 52.6 a.u.
`2'F-ANA at 1 5 7 8 11 12 15`: “mean fluorescence intensity” 85.9 a.u.
`2'F-ANA at 2 3 4 5 9 10 12 14` — result for “mean fluorescence intensity”: 48.1 a.u.
`2'F-ANA at 1 3 5 8 10 11 12 13 15`: “mean fluorescence intensity” 46.7 a.u.
Under “mean fluorescence intensity”, `2'F-ANA at 1 2 4 5 6 7 9 11 12 13 14 15` is recorded as 51.5 a.u.
Under “mean fluorescence intensity”, `2'F-ANA at 1 5 7 8 13 14` is recorded as 44.3 a.u.
`2'F-ANA at 1 2 4 14 15` — result for “mean fluorescence intensity”: 53.2 a.u.
For `2'F-ANA at 2 4 7 8 9 10 12 13 15`, “mean fluorescence intensity” read 101 a.u.
For `2'F-ANA at 2 4 5 7 8 11`, “mean fluorescence intensity” read 108 a.u.
Under “mean fluorescence intensity”, `2'F-ANA at 1 2 5 7 9 10 11 12 13 14 15` is recorded as 64.6 a.u.

Block 2
Target: Ras GTPase-activating protein-binding protein 1, full length (G3BP1, Homo sapiens, UniProt Q13283)
UniProt Q13283, sequence (whole entry, looked up): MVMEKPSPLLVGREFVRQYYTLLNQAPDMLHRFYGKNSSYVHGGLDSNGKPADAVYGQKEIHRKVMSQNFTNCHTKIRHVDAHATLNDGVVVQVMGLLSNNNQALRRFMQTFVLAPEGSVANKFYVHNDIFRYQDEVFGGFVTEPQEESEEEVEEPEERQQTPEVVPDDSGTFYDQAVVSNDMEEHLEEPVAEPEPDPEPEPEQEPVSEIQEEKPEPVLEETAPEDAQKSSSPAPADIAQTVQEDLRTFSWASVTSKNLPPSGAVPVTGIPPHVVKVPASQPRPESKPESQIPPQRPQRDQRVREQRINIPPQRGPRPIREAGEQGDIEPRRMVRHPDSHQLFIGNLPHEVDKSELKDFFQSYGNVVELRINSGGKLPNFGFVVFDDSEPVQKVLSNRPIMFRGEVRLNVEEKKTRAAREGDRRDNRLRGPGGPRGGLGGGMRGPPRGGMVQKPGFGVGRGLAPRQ
Technique: RNA Bind-n-Seq
Form: RNA
Matrix: in vitro
Concentration: 200 nM
Setting: whole 134-nt RNA, ends assumed
With: 150 mM KCl
Reference: input library
Direction: higher = stronger binding
For `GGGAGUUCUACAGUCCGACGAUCACCAUGCAGGUGGGCAUCUUUGGGAAGUGGGGCAAGGGGGGGAUAGGGAGGGGGGUAACACUUUGGGAACAGGUGGUCCCAGGACGUUUCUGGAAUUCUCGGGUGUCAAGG`, the log2 enrichment was 1.51.
With `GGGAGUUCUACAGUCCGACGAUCGCAGGAAGUAAAAACAAAUGGAAAUGCUUCGGAUGGUGGCAGGGGUGGGGGUUGCUAAGGAAAGGGUGGGAUGGGAGUGGGUAAAGAGUUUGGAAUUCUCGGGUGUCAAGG` the log2 enrichment was 1.57.
For `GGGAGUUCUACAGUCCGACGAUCGCAGGAAGUAUAAACAAAUGGAAAUGCUUCGGAUAGUGGCAGGGGUGGGGGUUGCUAAGGAAAGGGUGGGAUGGGAGUGGGUAAAGAGUUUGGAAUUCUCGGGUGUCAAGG`, the log2 enrichment was 1.15.
With `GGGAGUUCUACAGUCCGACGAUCGUCCUGUGCUACACAUCGUAUGUACCGAAUCGGGGAAAAAGGGGAAAAAGGGGAGGGGAAAGUAUUAUGUUACGCCGUUCGGAUCUGCACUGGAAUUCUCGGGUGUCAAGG` the log2 enrichment was 0.547.
`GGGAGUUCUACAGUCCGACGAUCUGGGAGGUGUAUUUUGUUUAUUUUUUUAGCUCAUUUCCAGGGGUGGGAAUUUUUUUUUAAUAUGUGUCAUGAAUAAAGUUGUUUUUGAAAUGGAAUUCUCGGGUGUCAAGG` gave a log2 enrichment of 0.163.
With `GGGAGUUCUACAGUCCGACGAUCCCUCAAGUCCUGUGCUACACAUCGUAUGUACCGAAUCGGUUUGGAAAGGAGGAAAGUAUUAUGUUACGCCGUUCGGAUCUGCACUUCCAGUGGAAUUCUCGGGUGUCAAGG` the log2 enrichment was 0.0354.
For `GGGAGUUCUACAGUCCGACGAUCCCUCAAGUCCUGUGCUACACAUCGUAUGUACCGAAUCGGUUUUUGGAGGAGGAAAGUAUUAUGUUACGCCGUUCGGAUCUGCACUUCCAGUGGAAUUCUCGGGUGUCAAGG`, the log2 enrichment was -0.012.
For `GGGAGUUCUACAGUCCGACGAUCCUGUGCUACACAUCGUAUGUACCGAAUCGGGGUUUUUUUGGGGUUUUUUUGGUUUUUUUGGAAAGUAUUAUGUUACGCCGUUCGGAUCUGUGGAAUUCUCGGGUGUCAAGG`, the log2 enrichment was -0.787.
`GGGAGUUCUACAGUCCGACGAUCCACAGACAACACGCACCCAGACAGACACAGAGGGAAGGGGUUGGGAUGGGGACAGGGUGCACAGCAGGGCGGGGUAGGACCCCAGCCCCUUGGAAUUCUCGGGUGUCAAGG` has a log2 enrichment of 2.

Block 3
Target: CCNE1, cyclin fold, Cln2 fusion (human)
Technique: yeast growth competition, sequencing
Matrix: yeast
Setting: weak parent motif
Reference: not given
Direction: higher = stronger binding
Starting sequence: CDC6 docking peptide (human); TLKGRRLVFDNQL
`Q12G` — result for “normalised enrichment score”: 1.34.
`V8D` — result for “normalised enrichment score”: 0.377.
`F9Q`: “normalised enrichment score” -0.344.
`K3H` — result for “normalised enrichment score”: -0.12.
`T1G`: “normalised enrichment score” 0.383.
Under “normalised enrichment score”, `D10S` is recorded as 0.842.
For `K3V`, “normalised enrichment score” read 1.73.
`R6G` — result for “normalised enrichment score”: 0.115.

Single results of other studies
For `PhoQ, residues 284 288 289 292 302 303 AGCYAI`, the fold induction was 12.2 (PhoP, residues 12 14 15 18 19 NHFIF (Escherichia coli, UniProt P23836); Sort-seq, refers to: YFP reporter; E. coli; PhoQ-PhoP variant library, with: 10 µM Mg2+; reference: high Mg2+ state, higher = stronger signaling).

Repeated from above (block 1):
Under “mean fluorescence intensity”, `2'F-ANA at 1 2 4 5 6 7 9 11 12 13 14 15` is recorded as 51.5 a.u.
Under “mean fluorescence intensity”, `2'F-ANA at 1 5 7 8 13 14` is recorded as 44.3 a.u.
`2'F-ANA at 1 2 4 14 15` — result for “mean fluorescence intensity”: 53.2 a.u.
For `2'F-ANA at 2 4 7 8 9 10 12 13 15`, “mean fluorescence intensity” read 101 a.u.
For `2'F-ANA at 2 4 5 7 8 11`, “mean fluorescence intensity” read 108 a.u.
